Experimental data collected from several papers.
Protocols differ between the studies behind these lines. ± gives the spread as reported. Converted amounts (≈) assume the structure as drawn.

`CC(C)C[C@@H](NC(=O)[C@@H](CCCCN)NC(=O)CNC(=O)CNC(=O)[C@@H]1CSSC[C@H](N)C(=O)NCC(=O)N[C@@H](CCCNC(=N)N)C(=O)N[C@@H](CCCNC(=N)N)C(=O)N[C@@H](C)C(=O)NCC(=O)NCC(=O)N[C@@H](CO)C(=O)N1)C(=O)N[C@H](C)C(=O)N[C@H](CCCCN)C(=O)N[C@H](CC(C)C)C(=O)N[C@H](C)C(=O)N[C@H](CCCCN)C(=O)N[C@H](CCCCN)C(=O)N[C@H](CC(C)C)C(=O)N[C@H](C)C(=O)N[C@H](CCCCN)C(=O)N[C@H](CC(C)C)C(=O)N[C@H](C)C(=O)N[C@H](CCCCN)C(=O)O` has an MRT of 58.2 min (cynomolgus monkey, plasma; intravenous, 9 mg/kg, infusion).
The tumour uptake of `CN[C@](C)(C[18F])C(=O)O` is reported as 4.8 ± 0.9 %ID/g (SCID mouse U87 xenograft; 30 min post injection).
The tissue concentration of `COC(=O)C[C@](O)(CCCC(C)(C)OC(C)=O)C(=O)O[C@@H]1C(OC)=C[C@]23CCCN2CCc2cc4c(cc2[C@H]13)OCO4` is reported as 397 ng/mL (CD1 mouse, spleen; subcutaneous, 1 mg/kg, 2 h).
`COc1ccc(NC(=O)Cn2c(=O)c3ccccc3n(CC(=O)Nc3cc([125I])c(OC)cc3OC)c2=O)cc1` gave a tracer uptake of 0.19 %ID/g (rat, blood; intravenous, 5 min).
With `CCCCC[C@@H]1OC(=O)[C@@H](C)N(C)C(=O)[C@H](CCCCC)OC(=O)[C@@H](C)N(C)C(=O)[C@H](CCCCC)OC(=O)[C@@H](C)N(C)C(=O)[C@H](CCCCC)OC(=O)[C@@H](C)N(C)C1=O` the Papp A→B was 1.2 ×10⁻⁶ cm/s (Caco-2; 10 µM, 2 h, pH 7.4).
The Vd of `CSCC[C@H](NC(=O)CNC(=O)[C@H](CC(=O)O)NC(=O)[C@@H](NC(=O)[C@@H](NC(=O)[C@@H](NC(=O)CNC(=O)[C@H](CCC(N)=O)NC(=O)[C@H](CCSC)NC(=O)[C@H](CC(=O)O)NC(=O)[C@H](C)NC(=O)[C@H](C)NC(=O)[C@@H](NC(=O)[C@H](CO)NC(=O)[C@@H](N)CC(C)C)[C@@H](C)O)C(C)C)C(C)C)[C@@H](C)O)C(=O)N[C@@H](C)C(=O)N[C@@H](CO)C(=O)NCC(=O)N[C@@H](CC(C)C)C(=O)N[C@@H](CC(=O)O)C(=O)N[C@@H](CCCCN)C(=O)N[C@@H](CC(=O)O)C(=O)N[C@@H](Cc1ccc(O)cc1)C(=O)N[C@@H](CC(C)C)C(=O)N[C@@H](CCCCN)C(=O)N1CCC[C@H]1C(=O)N[C@@H](CC(=O)O)C(=O)N[C@@H](CC(=O)O)C(=O)O` is reported as 0.431 L/kg (human, serum; intravenous, 4.16 mg/kg, patients, infusion).
With `CC(C)C[C@H](NC(=O)[C@H](CCCCN)NC(=O)[C@H](CCC(=O)O)NC(=O)[C@H](C)NC(=O)[C@@H](NC(=O)[C@H](CCCCN)NC(=O)[C@H](CC(=O)O)NC(=O)[C@H](Cc1ccc(O)cc1)NC(=O)[C@H](Cc1ccccc1)NC(=O)[C@H](C)NC(=O)[C@H](CCCCN)NC(=O)[C@H](CC(C)C)NC(=O)[C@H](Cc1c[nH]c2ccccc12)NC(=O)[C@@H](N)CC(=O)O)C(C)C)C(=O)N[C@@H](CCCCN)C(=O)N[C@@H](CCC(=O)O)C(=O)N[C@@H](C)C(=O)N[C@@H](Cc1ccccc1)C(=O)N1CCC[C@H]1C(=O)N[C@@H](CC(=O)O)C(=O)N[C@@H](Cc1c[nH]c2ccccc12)C(=O)N[C@@H](C)C(=O)N[C@@H](CCCCN)C(=O)N[C@@H](C)C(=O)N[C@@H](C)C(=O)N[C@@H](Cc1ccc(O)cc1)C(=O)N[C@@H](CC(=O)O)C(=O)N[C@@H](CCCCN)C(=O)N[C@@H](C)C(=O)N[C@@H](C)C(=O)N[C@@H](CCC(=O)O)C(=O)N[C@@H](CCCCN)C(=O)N[C@@H](C)C(=O)N[C@@H](CCCCN)C(=O)N[C@@H](CCC(=O)O)C(=O)N[C@@H](C)C(=O)N[C@@H](C)C(=O)O` the AUC(0-last) was 7100 µg·h/mL (cynomolgus monkey female, plasma; intravenous infusion, 75 mg/kg every other day, day 27).
`[2H]C([2H])([2H])C([2H])([2H])C([2H])([2H])OC(C(=O)OC1CCNCC1)(c1ccccc1)c1ccccc1`: “adverse drug reactions” 0% (item: upper respiratory tract infection; healthy Japanese male; oral, 12 mg once daily, 16 days).
`CC[C@H](C)[C@H](NC(=O)[C@H]1CCC[C@@H]1NC(=O)[C@H](CCCCN)NC(=O)[C@H](CCCCN)NC(=O)C[C@H](C)NC(=O)[C@@H](NC(=O)[C@H](CCCCN)NC(=O)[C@H]1CCC[C@@H]1NC(=O)[C@H](CC(C)C)NC(=O)CN)C(C)C)C(=O)N[C@@H](CCCCN)C(=O)N[C@@H](CCCCN)CC(=O)N[C@@H](Cc1ccccc1)C(N)=O` gave a retention time of 13.5 ± 0.02 min (RP-HPLC C18; hydrophobicity).
`CC[C@H](C)CCCCC(=O)N[C@@H](CCN)C(=O)N[C@H](C(=O)N[C@@H](CCN)C(=O)N[C@H]1CCNC(=O)[C@H]([C@@H](C)O)NC(=O)[C@H](CCN)NC(=O)[C@H](CCN)NC(=O)[C@H](CC(C)C)NC(=O)[C@@H](Cc2ccccc2)NC(=O)[C@H](CCN)NC1=O)[C@@H](C)O`: “urinary albumin excretion” 284 µg/24 h (ELISA; male CD-1 mouse, urine; subcutaneous, 12.5 mg/kg, 4 doses every 8 h, 24 h urine collection, nephrotoxicity).
`O=C(O)CC[C@H](NC(=O)O[C@@H](CCCCNC(=O)c1ccc([18F])cc1)C(=O)O)C(=O)O` gave a tissue uptake of 1.89 ± 1.58 %ID/g (mouse, PC-3 PIP/flu xenografts, small intestine; 30 min).
For `O=c1c2ccccc2[se]n1CCCn1[se]c2ccccc2c1=O`, the solubility was 300 ± 17 µg/mL (≈ 688 µM) (20% Soluplus in water; 24 h, 25 °C, 200 mg/mL).
`Cc1ccc(C(C)C)cc1.Clc1ccc2c(NCCNCc3ccccn3)ccnc2c1.[Cl-].[Cl][Ru+]` — result for “distribution coefficient D”: 8.84 ± 0.82 (shake-flask method; water/n-octanol; pH 6.6).
For `CC[C@H](C)C(=O)N1CCC(NC(=O)Nc2ccc(OC(F)(F)F)c(F)c2)CC1`, the Cmax was 35 ng/mL (human, plasma; oral, 8 mg, single dose, fasted, healthy volunteers).
For `Cc1cc(-c2ccc3ccccc3c2)nnc1NCCN1CCN(C)CC1`, the bioavailability was 38.8% (male rat, plasma; oral).
With `C[C@@H]1CC[C@H]2[C@@H](C)CO[C@@H]3O[C@@]4(C)CC[C@@H]1[C@]32OO4` the AUC extrapolated was 3.57 ± 1.47% (Sprague-Dawley rat, male; intravenous, 5 mg/kg).
The unbound fraction of `COc1ccc(F)cc1S(=O)(=O)Nc1cnc2c(c1)C(=O)NCCO2` is reported as 0.196 to 0.207 (ultracentrifugation; human plasma).
`N=C(N)NCc1ccc(C(=O)NCCCC[C@H](NC(=O)N[C@@H](CCC(=O)O)C(=O)O)C(=O)O)cc1[211At]` gave a tissue uptake of 2.01 ± 0.41 %ID/g (SCID mouse, PC-3 xenografts, stomach; 1 h).
`O=C([O-])C[N+]12CC(=O)[O][Re-2]1[O]P(=O)([O-])C2.[C-]#[O+].[C-]#[O+].[C-]#[O+]` (centres unmarked): “isomer fraction at equilibrium” 6% (HPLC; aqueous solution; 1 d, pH 5, room temperature).
For `CC(C)[C@H](NC(=O)CNC(=O)[C@H](CCC(N)=O)NC(=O)[C@H](C)N)C(=O)O`, “subjects with adverse events” read 50% (mild intensity; human; 10 mg/kg, 3 days, thrice daily dosing).
With `COc1cc2ccnc(Cc3ccc(O[11CH3])c(OC)c3)c2cc1OC` the brain uptake was 0.039 %ID/g (Sprague-Dawley rat, cortex; i.v., 30 min).
`CC(C)(CCCC/C=C/CCCCCC(C)(C)C(=O)O)C(=O)O` has a Cmax of 139000 ± 48300 ng/mL (rhesus monkey, male, hyperlipidaemic, plasma; oral, 20 mg/kg, first dose).
The concentration of `CC[C@H](C)[C@H](NC(=O)[C@H](CCC(=O)O)NC(=O)[C@H](CCC(=O)O)NC(=O)[C@H](Cc1ccccc1)NC(=O)[C@H](CC(=O)O)NC(=O)CNC(=O)[C@H](CC(N)=O)NC(=O)CNC(=O)CNC(=O)CNC(=O)CNC(=O)[C@@H]1CCCN1C(=O)[C@H](CCCNC(=N)N)NC(=O)[C@@H]1CCCN1C(=O)[C@H](N)Cc1ccccc1)C(=O)N1CCC[C@H]1C(=O)N[C@@H](CCC(=O)O)C(=O)N[C@@H](CCC(=O)O)C(=O)N[C@@H](Cc1ccc(O)cc1)C(=O)N[C@@H](CC(C)C)C(=O)O` is reported as 2.97 ± 0.1 ng/mL (LC-MS/MS; human plasma; 75 days, -80 °C, stability, nominal 3.0 ng/mL).
`O=C(O)CCC(NP(=O)(O)OCCC[C@@H](NC(=O)CCC(NC(=O)c1ccc([18F])cc1)C(=O)O)C(=O)O)C(=O)O` (some centres unmarked) gave a tumour uptake of 1.57% (radioactivity; mouse, CWR22Rv1 xenograft, tumour; 2 h).
With `CSCC[C@H](NC(=O)[C@H](CO)NC(=O)[C@H](Cc1ccc(O)cc1)NC(=O)[C@@H](N)CO)C(=O)N[C@@H](CCC(=O)O)C(=O)N[C@@H](Cc1c[nH]cn1)C(=O)N[C@@H](Cc1ccccc1)C(=O)N[C@@H](CCCNC(=N)N)C(=O)N[C@@H](Cc1c[nH]c2ccccc12)C(=O)NCC(=O)N[C@@H](CCCCN)C(=O)N1CCC[C@H]1C(=O)N[C@H](C(=O)NCC(=O)N[C@@H](CCCCN)C(=O)N[C@@H](CCCCN)C(=O)N[C@@H](CCCNC(=N)N)C(=O)N[C@@H](CCCNC(=N)N)C(=O)N1CCC[C@H]1C(=O)N[C@H](C(=O)N[C@@H](CCCCN)C(=O)N[C@H](C(=O)N[C@@H](Cc1ccc(O)cc1)C(=O)N1CCC[C@H]1C(=O)N[C@@H](CC(=O)O)C(=O)NCC(=O)N[C@@H](C)C(=O)N[C@@H](CCC(=O)O)C(=O)N[C@@H](CC(=O)O)C(=O)N[C@@H](CCC(=O)O)C(=O)N[C@@H](CC(C)C)C(=O)N[C@@H](C)C(=O)N[C@@H](CCC(=O)O)C(=O)N[C@@H](C)C(=O)N[C@@H](Cc1ccccc1)C(=O)N1CCC[C@H]1C(=O)N[C@@H](CC(C)C)C(=O)N[C@@H](CCC(=O)O)C(=O)N[C@@H](Cc1ccccc1)C(=O)O)C(C)C)C(C)C)C(C)C` the AUC(0-last) was 0.000768 µg·h/mL (healthy human subjects, plasma; subcutaneous, 80 IU three times weekly, day 1, repository corticotropin injection).
For `C/C=C/C=C/C/C=C/CCCCCCCc1cccc(O)c1O`, the tissue concentration was 49200 ± 3630 ng/g (female Kunming mice, tumour-bearing, tumor; intravenous, 10 mg/kg, 2 h).
For `CN(C)C(CNC(=O)Nc1cc(C(F)(F)F)ccc1N1CCOCC1)c1ccncc1` (centres unmarked), “serum total CO2” read 19 mmol/L (mouse, serum; intraperitoneal, 240 mg/kg single dose).
With `CSCC[C@@H]1NC(=O)[C@@H]2CSSC[C@H](NC(=O)[C@H](CO)NC(=O)[C@H](C)N)C(=O)N[C@@H](CCCNC(=N)N)C(=O)N[C@@H]([C@@H](C)O)C(=O)N3CCC[C@H]3C(=O)N[C@@H](CCCCN)C(=O)N[C@@H](CC(=O)O)C(=O)N[C@H]3CSSC[C@H](NC(=O)[C@H](CCCCN)NC(=O)[C@H](CCCNC(=N)N)NC(=O)[C@H](CC(N)=O)NC1=O)C(=O)N[C@@H](CCCCN)C(=O)N[C@H]1CSSC[C@H](NC(=O)[C@@H]4CCCN4C(=O)[C@H](CC(=O)O)NC(=O)[C@H](C)NC3=O)C(=O)N[C@@H](C)C(=O)N[C@@H](CCCCN)C(=O)N[C@@H](CCC(=O)O)C(=O)N[C@@H]([C@@H](C)O)C(=O)NCC(=O)N[C@@H](CSSC[C@@H](C(N)=O)NC(=O)[C@H](CCCNC(=N)N)NC(=O)[C@H](CC(N)=O)NC1=O)C(=O)N1CCC[C@H]1C(=O)N[C@@H](Cc1ccc(O)cc1)C(=O)NCC(=O)N[C@@H](CCCCN)C(=O)N2` the creatine kinase was 418 U/L (DA rat, pristane-induced arthritis, serum; subcutaneous, 0.1 mg/kg every other day, end of 21-day trial).
The intact compound of `CCNc1cc2[o+]c3cc(NCC)c(C)cc3c(-c3ccccc3C(=O)OCCOCC[18F])c2cc1C` is reported as 79 ± 7% (HPLC; rat, urine; 60 min).

A few entries again:
`COc1ccc(NC(=O)Cn2c(=O)c3ccccc3n(CC(=O)Nc3cc([125I])c(OC)cc3OC)c2=O)cc1` gave a tracer uptake of 0.19 %ID/g (rat, blood; intravenous, 5 min).
With `CCCCC[C@@H]1OC(=O)[C@@H](C)N(C)C(=O)[C@H](CCCCC)OC(=O)[C@@H](C)N(C)C(=O)[C@H](CCCCC)OC(=O)[C@@H](C)N(C)C(=O)[C@H](CCCCC)OC(=O)[C@@H](C)N(C)C1=O` the Papp A→B was 1.2 ×10⁻⁶ cm/s (Caco-2; 10 µM, 2 h, pH 7.4).
The Vd of `CSCC[C@H](NC(=O)CNC(=O)[C@H](CC(=O)O)NC(=O)[C@@H](NC(=O)[C@@H](NC(=O)[C@@H](NC(=O)CNC(=O)[C@H](CCC(N)=O)NC(=O)[C@H](CCSC)NC(=O)[C@H](CC(=O)O)NC(=O)[C@H](C)NC(=O)[C@H](C)NC(=O)[C@@H](NC(=O)[C@H](CO)NC(=O)[C@@H](N)CC(C)C)[C@@H](C)O)C(C)C)C(C)C)[C@@H](C)O)C(=O)N[C@@H](C)C(=O)N[C@@H](CO)C(=O)NCC(=O)N[C@@H](CC(C)C)C(=O)N[C@@H](CC(=O)O)C(=O)N[C@@H](CCCCN)C(=O)N[C@@H](CC(=O)O)C(=O)N[C@@H](Cc1ccc(O)cc1)C(=O)N[C@@H](CC(C)C)C(=O)N[C@@H](CCCCN)C(=O)N1CCC[C@H]1C(=O)N[C@@H](CC(=O)O)C(=O)N[C@@H](CC(=O)O)C(=O)O` is reported as 0.431 L/kg (human, serum; intravenous, 4.16 mg/kg, patients, infusion).
